# Measurements gathered from unrelated publications.
# Compare with care: the assays were run in different laboratories.
Structure (SMILES),test,system,conditions,hepatic clearance
O=C(NCCN1CCCC1=O)c1ccc(C2CCCCC2)cc1,liver microsome stability,rat liver microsomes,1 µM,49 mL/min/kg
COc1cc(-c2cc(C(C)=O)n3ccccc23)c(OC)cc1Cn1ccnc1,,human liver microsomes,"1 µM, pH 7.4",8.9 mL/min/kg
Cc1cccc2c1ccc1cc(C(C)C)ccc12,,"developing zebrafish, liver",,686 mL/min/kg
O=C1CC[C@H](N2Cc3cc(N4CCN(CC5CCN(c6ccc([C@@H]7c8ccc(O)cc8CC[C@@H]7c7ccccc7)cc6)CC5)CC4)ccc3C2=O)C(=O)N1,,cryopreserved human hepatocytes,"1 µM, corrected for fu",10.2 mL/min/kg
Cc1nc2ccc(OCc3ccc(C(F)(F)F)cc3)cc2[nH]1,,human liver S9,"1 µM, pH 7.4",5.67 mL/min/kg
Cl.N=C(CC(O)c1cc2c(F)cc(F)cc2c2cc(C(F)(F)F)ccc12)Nc1ccc(F)c(F)c1 (stereo not shown),,human liver microsomes,"1 µM, pH 7.4",1.04 L/min
COCCC(=O)Nc1ccc([C@H]2[C@@H](F)[C@@H](F)C[C@@H](F)[C@H]2F)cc1,hepatocyte stability,cryopreserved rat hepatocytes,1 µM,14 mL/min/kg
O=C(c1ccc(F)cc1)C1CCN(CCn2c(=O)[nH]c3ccccc3c2=O)CC1,,rat liver microsomes,,39.6 mL/min/kg
CN1CCN(C(=O)c2ccc([C@H]3[C@@H](F)[C@@H](F)C[C@@H](F)[C@H]3F)cc2)CC1=O,liver microsome stability,rat liver microsomes,1 µM,8.2 mL/min/kg
c1ccc2ccccc2c1,,"developing zebrafish, liver",,55.5 mL/min/kg

# A few entries again:
Structure (SMILES),test,system,conditions,hepatic clearance
Cc1nc2ccc(OCc3ccc(C(F)(F)F)cc3)cc2[nH]1,,human liver S9,"1 µM, pH 7.4",5.67 mL/min/kg
